Assay results from different studies.
Every numbered part comes from another study and shows a few of its results, in no order.

Study 1 — technique: protein binding microarray; molecule type: double-stranded DNA, one strand shown; sample: in vitro; tested at: not given; reference: not given; reading: higher = stronger binding
Target: Histone acetyltransferase KAT6A, winged helix 2, GST fusion (KAT6A, Homo sapiens, UniProt Q92794, residues 85-181)
Setting: 8-mer, flanks averaged, mean of 2 arrays, mostly near background
Residues (chain): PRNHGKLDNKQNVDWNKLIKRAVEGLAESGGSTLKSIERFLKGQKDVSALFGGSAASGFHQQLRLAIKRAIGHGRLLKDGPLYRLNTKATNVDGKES
Strand	E-score
AATTTGCA	-0.00109
AACCCTCC	-0.0518
CGGGGGAA	0.171
CGAACAAC	0.0406
CACTTTCC	-0.102

Study 2 — technique: protein-binding microarray; molecule type: double-stranded DNA, one strand shown; sample: in vitro; tested at: not given; reading: higher = stronger binding
Target: Protein C-ets-1 (ETS1, Homo sapiens, UniProt P14921, residues 1-441, K379A, full length assumed)
UniProt P14921, sequence (whole entry, unmodified, looked up): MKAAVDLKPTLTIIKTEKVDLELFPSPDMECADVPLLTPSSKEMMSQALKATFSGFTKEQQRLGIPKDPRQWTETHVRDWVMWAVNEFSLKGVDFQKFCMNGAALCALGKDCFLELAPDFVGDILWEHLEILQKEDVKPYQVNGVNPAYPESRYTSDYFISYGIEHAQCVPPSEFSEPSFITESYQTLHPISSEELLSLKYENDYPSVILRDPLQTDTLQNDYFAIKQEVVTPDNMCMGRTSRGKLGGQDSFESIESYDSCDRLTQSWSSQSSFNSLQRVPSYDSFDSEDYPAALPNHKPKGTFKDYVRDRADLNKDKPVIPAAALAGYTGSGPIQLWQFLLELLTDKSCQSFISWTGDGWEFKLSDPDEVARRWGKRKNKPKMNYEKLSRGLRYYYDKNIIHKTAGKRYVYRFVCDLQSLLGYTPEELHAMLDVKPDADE
Setting: k-mer, scored over probes, only values ≥0.25
Strand	E-score
ATACAGAC	0.26
CATGATAC	0.254
ACGATGTA	0.334
AACCGGTC	0.369
GTCGACGA	0.282

Study 3 — technique: protein-binding microarray; molecule type: double-stranded DNA, one strand shown; sample: in vitro; tested at: 0.8 µM; setting: whole 60-bp probe, no competitor; reading: higher = stronger binding; all sequences stand within: … GTCTTGATTCGCTTGACGCTGCTG
Target: Centromere-binding protein 1, full length, N-terminal tag (CBF1, Saccharomyces cerevisiae, UniProt P17106, residues 1-351)
UniProt P17106, sequence (whole entry, looked up): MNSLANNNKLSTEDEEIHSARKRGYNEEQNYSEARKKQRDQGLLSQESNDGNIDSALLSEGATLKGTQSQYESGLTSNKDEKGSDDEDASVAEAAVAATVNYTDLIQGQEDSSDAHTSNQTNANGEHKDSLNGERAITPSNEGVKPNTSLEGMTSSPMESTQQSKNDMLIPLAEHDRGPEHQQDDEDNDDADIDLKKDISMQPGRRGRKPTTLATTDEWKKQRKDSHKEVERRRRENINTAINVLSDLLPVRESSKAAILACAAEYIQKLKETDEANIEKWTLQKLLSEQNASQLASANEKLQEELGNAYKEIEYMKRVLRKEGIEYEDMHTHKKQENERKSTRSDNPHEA
Strand	fluorescence intensity [a.u.]
GAATTTTATTTTTGTCACGTAGTGCACTTTGATTAG	894
CTACCTTACGACAATTGCGTGACAAATATCACCTTC	651
CTATGTATCTGTGCCCATGTGATCTGTACCTTTTTC	2880
TGTACGAAGCTATTATGCGTGGTTATAGTAGTTAGG	534
GAATAAAAAATGCATCACGACTCGTTTAGACAATAG	643

Other studies, line by line
Substance	target	test	system	setting	scale	endpoint	result
PhoQ, residues 284 288 289 292 302 303 SCEHLI	PhoP, residues 12 14 15 18 19 HEGLL (Escherichia coli, UniProt P23836)	Sort-seq, refers to: YFP reporter	E. coli	PhoQ-PhoP variant library, together with: 10 µM Mg2+	reference: high Mg2+ state, higher = stronger signaling	fold induction	7.39

Repeated from above (study 2):
Strand	E-score
ACGATGTA	0.334
CATGATAC	0.254
ATACAGAC	0.26
